Published values pooled from the literature.
Numbered parts are unrelated; each lists some results of a single study.

Block 1 — technique: protein binding microarray; molecule type: double-stranded DNA, one strand shown; matrix: in vitro; tested at: not given; baseline: not given; reading: higher = stronger binding
Target: Histone acetyltransferase KAT6A, winged helix 1, GST fusion (KAT6A, Homo sapiens, UniProt Q92794, residues 1-85)
Notes: 8-mer, flanks averaged, mean of 2 arrays, mostly near background
Residues (chain): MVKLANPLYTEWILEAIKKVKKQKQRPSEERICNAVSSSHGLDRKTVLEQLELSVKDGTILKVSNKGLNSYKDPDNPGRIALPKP
Oligonucleotide | E-score
CCTGCCTA | -0.182
CACCTGCC | -0.173
CTTGAACA | -0.148
CCTTGGCA | -0.253
AGCAGCAT | -0.1
AATATGCT | -0.166
GAGCAAGC | -0.0682
CGCCCGGC | 0.413
ATGATATG | -0.00523
CTAATTCA | -0.00976
TCCGCGCA | 0.394
CCGACCGA | 0.292
CCGCAGCA | 0.162
CAACAGGC | -0.0193
AACGACTA | -0.0768
CAGGAATG | -0.185
AGAATCAT | -0.357
AACACTAA | 0.0566
CGAGTGCC | 0.156
CCAGAATC | -0.165
CATAACCC | -0.0623
ATACCTGC | -0.0882
GGATCTGA | -0.109
GCTCCGCC | 0.285
TACCGCGA | 0.342

Block 2 — technique: RNA Bind-n-Seq; molecule type: RNA; matrix: in vitro; tested at: 365 nM; baseline: no-protein control; reading: higher = stronger binding
Target: RNA binding protein fox-1 homolog 2, RRM domain, GST-SBP tag (RBFOX2, Homo sapiens, UniProt O43251-10, residues 100-194)
Notes: natural RNA segment, single round, ends assumed
All sequences stand within: GGGAGUUCUACAGUCCGACGAUC … UGGAAUUCUCGGGUGCCAA
Construct (chain): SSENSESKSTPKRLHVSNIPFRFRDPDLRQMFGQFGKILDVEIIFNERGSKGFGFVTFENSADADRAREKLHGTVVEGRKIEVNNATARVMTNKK
Oligonucleotide | RBNS enrichment (R)
CCUCACCAAGAUAAUUCUGUACAGUGACUAGCAGAUCCUGGCCUAGGGUGGCUCAGCCGGUGUUUUCUAGAGUCCUUGUAUUAUAUACUGUCAACUCGUAUGCUGGGGGC | 0.808
UUUUUGUAUGGAAUUUUUUACAGAAGAGCUAUUUCUGUAUAUGUAAUUAUUUGUGUUUUUUGAAAUGCCUUCCGUAGGUAACCGACAGUCUUAAGCAGUGCUCCACUAAC | 0.676
AUGUUUUCAGGGGAUGCCAUUUAUCCCAAGCUUAUCCUGUAAUUCUAGAAUGACUUGGUGUCCUGAUGCACUUCUCACCAGAGGCUGCCUAGCAGCAUGUGUUAGCCAAA | 6.26
AGUCAGCCUUUAUUAGCACCAAAGACUUUAUGAAGAUCCCACACACAGACACACAUCCCUUCCCGCCUCCCCCCUGCCUUCAGUAGGAUCUGGCUCCGUGGCUGGAGGAC | 0.515
UUUCAAUCAGUCUCGUGCUCUGUCCCUUUACAUCGGUAUGCGACUAUUACAAUCACUGUGUGUGUGUCUUUUCUUAGCAAAGGCGUUUUAAAACUUGAGCCUGGACCUUG | 0.345
UUUCAAUAUUUGGGUAAUAUUAGAAAGAUUCUUCCCACAGGGAAGAACUAGCAAGUGUCCCAAUUUUUUCCAAACGUUGGGGAGGGGAAAAUUCACUGUAUCAUGAAACC | 0.486
UAUCUGCUUCUUUUUACUUCUCCAGGUUUUGAUUUGUUUUGUUUUGUUUUAUUUGCGGGGGGAGUGGGAUACAUUUUGUUUUAAACAGAUAUGUGUAUUUGAUAGGUGGG | 27.5
GGUGGGUGGCCCGCAUGCUGGGGAGGGUCUAUAGGAGGUUUGAGCUCAAAUGCUUAAACUGCUGGCAACAUAUAAUAAAUGCAUGCUAUUCAAUGAAUUUCUGCCUAUGA | 18.7
CCACACACAGCACAGAGAGCAGAGUUUAACCAUAGAUCAUGGUAGGCUCAACAUUCCCUUCUAAAGCUGCAAGCCAAUCACUGUAACUGUAGCUGAGGAGGAGGGGAAGC | 0.256
CAAUUGGAAGAGCAUAUGAACACGGGCCAGCUAGCAGGAUUUUCACAUCAAGUUAGAAGUCUGAUUUUGAAUAAUAUCAUCAAUAAGAAGGAGUUUGGGAUUUUGGCAAA | 0.673
GUUUCCACAUUUUUUGCUUGUGGAAAGACUGUUUUCAUAUGUUCUACUUGGAUAAAGAAUUUAAAUGGAAUUACGUAUAAAUUAAUAUAAAAUGAUUACCUCUGGUGUUG | 0.684
AUAAAUGGAAAGAAAGUUUUAUUUCCUUUUUUGUUUGAUGGGCAGUAUGCCAUAUUAUACCCAAAGUUCUUUUAAAAAAUAUUUCCAUCAACCAUUUUUAUUUAAAAUAA | 0.845

Block 3 — technique: RNA Bind-n-Seq; molecule type: RNA; matrix: in vitro; tested at: not given; notes: RNA with constant flanks, ends assumed; baseline: input RNA pool; reading: higher = stronger binding
Target: RING finger protein unkempt homolog, zinc fingers 1-6, GST-SBP tag (UNK, Homo sapiens, UniProt Q9C0B0, residues 30-357)
All sequences stand within: GGGAGUUCUACAGUCCGACGAUC … CAACAGAGGAUUGAGCAUCA
Construct (chain): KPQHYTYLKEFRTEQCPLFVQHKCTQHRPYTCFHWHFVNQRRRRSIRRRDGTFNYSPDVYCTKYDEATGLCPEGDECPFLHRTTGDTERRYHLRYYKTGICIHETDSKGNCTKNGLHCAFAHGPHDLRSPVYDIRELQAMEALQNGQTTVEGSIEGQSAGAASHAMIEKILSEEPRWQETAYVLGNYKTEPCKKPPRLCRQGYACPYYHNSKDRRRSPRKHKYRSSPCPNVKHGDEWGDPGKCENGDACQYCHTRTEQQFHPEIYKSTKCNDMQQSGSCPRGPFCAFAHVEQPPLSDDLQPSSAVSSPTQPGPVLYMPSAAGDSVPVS
Oligonucleotide | bound/input enrichment [ratio]
GACAUUGCAGAAAAUGCUUUGAAAAAUUCCUCAGAAACAGAAAUACCUACUGUCAGCGUUUCCGCUGAUGAAGAAUUCCUUCCCUUCAAAGAAAAUACAUUUGACCUGGUGGUUAGCAGU | 0.335
GAUGAUGAUGAAGAAUCUGGACGAUUACGUUUUAAAACUGAAAGGAAAGAAGGAACAAUUAUCCGGCUUUCAGAUGUAACUAGAGAGAGAAGGAACAUUCCAGAAACUUUGGAACUUUCU | 0.272
GGAAGGACUGCGCUGCAGGUUAUGAAACUUGGAAAUCCCGAGAUUGCCAGGAGACUGCUACUCCGAGGUGCUAAUCCCGAUUUGAAAGACCGAACUGGUUUCGCUGUCAUUCAUGAUGCG | 0.143
UGGAUCCAUCGAUGCUGUUCCUGUUGAUGAAAACCUGUUCACUGGCGAAGAUCUGGAUGAACCCGAAGAGGAAUUGAACACUCUUGACUUAGAAGAAUGAUGAGGAUGAAAACUAGGUCA | 0.405
ACAAGAAUGCAGAAGGCUGGAAUUCCUUGUCCAACAGUUGUACUGCUUAAGAAGCACAUUUCCGUUAUGUCUUUCAUUGGCCAUGAUCAAGUUCCAGCCCCUAAAUUAAAAGAAGUAAAG | 0.196
GAAGCUGACAAGUGGAGCACGCUGAGUGCUGAUAUUGAGGAGACCUUCAAAACUCAAGACACCGCUGUGAUUUCUGCAAAGCUGACCGGCAUGCAGAACAGCUUGAUGAUGCUUGUGGAU | 0.145
GUUAAUCAUAGCUUGGAUUUACAGCCAGUUACUUACUCAGAACCUGCAUUUUGGUGUUCGACCGCAUAUUAUGAAUUAAAUCAGAGGGUUGGAGAAACCUUCCAUGCAUCACAGCCCUCA | 0.445
CACUGGAGACUGAGCAAAAGGAAAUGUGAAACGAACAACAUGAUGGAAUAUGUCAUCCUCACCGAAUUUUUACCAAAGACACCGAUUUUUCGACCAGAUUAGCAUUUGCUUUAUUUAUAG | 2.7
AAGAAGUGCAAACAGGACAAUAGGAAGGAGGAGCAGGCAGCUUCCCCUGUUGCAGAAGAUGCCGGUGAUGUGGGUGUGAGCUCAGAUGAUGAGAAGAGAGCCCAGGCAGCAAGAGGAUCU | 0.327
UAAAUGCCCUGAGAAAAGCAUAAGAUUAAAAACAAUCCAUGGGCUAUUUGUGUUACUGCUACCGAAAGGUUUUUUAAAAAGCUAUCUUUCAUAUUGAAUUUUUGAAUUCUUAAAAAGCCU | 0.219
CUCCUGCCGGGCGCCCGGCAGACCGAAGCGGCUCCAGUGUGCUGCUCUGCUCGGUACAACUCCGCGAUUUUGGCGUUCUGUGGUUUCUUCGUUCUCUAUGCCUUACGGGUGAACCUGAGU | 0.0909

Block 4 — technique: aptamer microarray, sandwich; molecule type: DNA with 2'F-ANA; matrix: in vitro; tested at: 200 nM; with: Cy3 exosite-II aptamer, 400 nM; reading: higher = stronger binding; oligonucleotide: GGTTGGTGTGGTTGG
Target: Prothrombin, mature alpha-thrombin (F2, Homo sapiens, UniProt P00734)
Notes: whole 15-mer aptamer, many near background
Modification | mean fluorescence intensity
2'F-ANA at 2 4 5 6 7 9 11 12 | 110 a.u.
2'F-ANA at 2 4 5 6 9 13 | 49.9 a.u.
2'F-ANA at 1 2 3 7 9 11 12 15 | 313 a.u.
2'F-ANA at 1 2 3 8 9 12 13 | 434 a.u.
2'F-ANA at 3 5 9 14 15 | 56 a.u.
2'F-ANA at 1 2 6 7 10 12 13 14 15 | 48 a.u.
2'F-ANA at 4 6 7 8 12 13 15 | 393 a.u.
2'F-ANA at 6 9 12 13 14 15 | 172 a.u.
2'F-ANA at 1 3 6 8 12 14 | 121 a.u.
2'F-ANA at 1 5 7 8 10 11 13 | 50.1 a.u.
2'F-ANA at 4 7 8 9 10 11 12 13 14 | 63.6 a.u.
2'F-ANA at 2 4 5 7 8 10 11 12 | 50.8 a.u.
2'F-ANA at 4 5 8 10 11 | 55.6 a.u.
2'F-ANA at 2 3 4 5 7 8 9 10 11 12 14 15 | 50.1 a.u.
2'F-ANA at 2 4 5 6 7 8 9 | 92.9 a.u.
2'F-ANA at 5 8 10 11 12 13 14 15 | 45.9 a.u.
2'F-ANA at 6 9 11 | 424 a.u.
2'F-ANA at 1 3 4 5 7 8 9 11 12 14 | 48.1 a.u.
2'F-ANA at 2 6 7 8 11 12 14 | 178 a.u.
2'F-ANA at 2 3 4 5 7 9 13 14 | 49.2 a.u.
2'F-ANA at 2 3 6 7 8 13 14 | 342 a.u.
2'F-ANA at 1 3 5 7 9 10 11 12 14 15 | 48.5 a.u.
2'F-ANA at 1 5 9 10 11 12 15 | 48.9 a.u.
2'F-ANA at 3 4 5 8 9 10 11 12 14 | 50.6 a.u.
2'F-ANA at 3 4 5 6 7 9 10 11 12 13 14 | 46 a.u.

Block 5 — technique: protein-binding microarray; molecule type: double-stranded DNA, one strand shown; matrix: in vitro; tested at: not given; reading: higher = stronger binding
Target: Max-binding protein MNT, bHLH-zipper, MAX partner unstated (MNT, Homo sapiens, UniProt Q99583, residues 220-300)
Notes: k-mer, scored over probes, only values ≥0.25
Construct (chain): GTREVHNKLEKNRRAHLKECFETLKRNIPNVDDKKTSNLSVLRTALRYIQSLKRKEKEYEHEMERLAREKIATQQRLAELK
Oligonucleotide | E-score
CTACCCAC | 0.295
CGTGGATC | 0.331
CCGACCCG | 0.288
CACGTTAG | 0.357
ATGTGCCG | 0.309
GCGAAGCA | 0.264
ATGCGTGA | 0.325
CCCACGCG | 0.456
ACAACACG | 0.329
AGGCCATG | 0.265
CGTGACTC | 0.327
CGACATGA | 0.257
ACGTGAGG | 0.374
CGTGCAAG | 0.314
GCATGACC | 0.347
AATCACGT | 0.428

For quick reference, copied from above (block 5):
Oligonucleotide | E-score
CGTGCAAG | 0.314
CGTGACTC | 0.327
AGGCCATG | 0.265
GCGAAGCA | 0.264
CTACCCAC | 0.295
ACGTGAGG | 0.374
ATGTGCCG | 0.309
ATGCGTGA | 0.325
GCATGACC | 0.347
AATCACGT | 0.428
